Values quoted from earlier work that unrelated publications cite.
Each line is one published result; not all experiments were run side by side. ± gives the spread as reported.
Chain of UniProt Q9NPD5 (whole entry, looked up): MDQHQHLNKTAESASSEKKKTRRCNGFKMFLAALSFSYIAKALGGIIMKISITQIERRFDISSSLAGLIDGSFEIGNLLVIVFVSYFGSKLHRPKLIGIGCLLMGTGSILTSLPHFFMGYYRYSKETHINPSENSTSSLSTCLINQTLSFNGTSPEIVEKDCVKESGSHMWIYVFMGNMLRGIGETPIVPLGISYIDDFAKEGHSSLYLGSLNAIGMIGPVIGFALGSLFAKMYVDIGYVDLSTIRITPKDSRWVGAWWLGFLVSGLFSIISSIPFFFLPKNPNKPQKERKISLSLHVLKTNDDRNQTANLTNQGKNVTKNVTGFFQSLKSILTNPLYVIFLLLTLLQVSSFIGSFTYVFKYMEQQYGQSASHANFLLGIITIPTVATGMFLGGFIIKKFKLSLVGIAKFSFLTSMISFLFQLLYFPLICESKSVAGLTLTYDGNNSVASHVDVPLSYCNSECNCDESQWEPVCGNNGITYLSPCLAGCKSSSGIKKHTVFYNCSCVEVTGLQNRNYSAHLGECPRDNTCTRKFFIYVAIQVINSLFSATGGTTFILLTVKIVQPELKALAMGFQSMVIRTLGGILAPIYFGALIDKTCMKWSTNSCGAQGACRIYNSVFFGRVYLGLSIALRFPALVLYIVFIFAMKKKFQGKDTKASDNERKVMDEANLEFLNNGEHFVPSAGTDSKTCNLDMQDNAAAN
Chain of UniProt P05177 (whole entry, looked up): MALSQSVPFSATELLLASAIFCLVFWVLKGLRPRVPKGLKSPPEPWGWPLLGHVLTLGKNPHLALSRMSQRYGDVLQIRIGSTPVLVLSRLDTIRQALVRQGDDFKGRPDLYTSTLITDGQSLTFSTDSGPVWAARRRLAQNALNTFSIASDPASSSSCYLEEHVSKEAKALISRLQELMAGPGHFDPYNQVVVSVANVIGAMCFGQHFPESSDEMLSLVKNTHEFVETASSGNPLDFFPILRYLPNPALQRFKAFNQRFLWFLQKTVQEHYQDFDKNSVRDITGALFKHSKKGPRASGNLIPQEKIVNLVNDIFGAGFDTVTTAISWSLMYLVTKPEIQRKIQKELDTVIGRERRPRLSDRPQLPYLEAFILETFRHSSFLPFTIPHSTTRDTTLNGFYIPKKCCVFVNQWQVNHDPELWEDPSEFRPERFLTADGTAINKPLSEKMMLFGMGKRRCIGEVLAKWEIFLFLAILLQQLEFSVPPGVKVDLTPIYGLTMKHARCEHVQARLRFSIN
Chain of UniProt P33261 (whole entry, looked up): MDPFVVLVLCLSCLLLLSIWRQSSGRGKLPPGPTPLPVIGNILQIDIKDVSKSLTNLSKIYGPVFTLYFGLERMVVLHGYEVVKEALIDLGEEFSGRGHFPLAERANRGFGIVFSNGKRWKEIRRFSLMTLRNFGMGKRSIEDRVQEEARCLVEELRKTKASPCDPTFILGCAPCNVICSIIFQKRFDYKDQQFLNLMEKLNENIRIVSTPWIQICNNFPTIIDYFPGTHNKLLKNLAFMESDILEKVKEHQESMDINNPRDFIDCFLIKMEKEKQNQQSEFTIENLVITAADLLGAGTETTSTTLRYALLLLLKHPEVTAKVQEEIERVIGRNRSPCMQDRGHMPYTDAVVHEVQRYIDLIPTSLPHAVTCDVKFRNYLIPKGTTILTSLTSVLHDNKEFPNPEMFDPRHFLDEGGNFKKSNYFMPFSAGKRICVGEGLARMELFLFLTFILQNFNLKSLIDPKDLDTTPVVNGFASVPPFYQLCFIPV
Chain of UniProt P08684 (whole entry, looked up): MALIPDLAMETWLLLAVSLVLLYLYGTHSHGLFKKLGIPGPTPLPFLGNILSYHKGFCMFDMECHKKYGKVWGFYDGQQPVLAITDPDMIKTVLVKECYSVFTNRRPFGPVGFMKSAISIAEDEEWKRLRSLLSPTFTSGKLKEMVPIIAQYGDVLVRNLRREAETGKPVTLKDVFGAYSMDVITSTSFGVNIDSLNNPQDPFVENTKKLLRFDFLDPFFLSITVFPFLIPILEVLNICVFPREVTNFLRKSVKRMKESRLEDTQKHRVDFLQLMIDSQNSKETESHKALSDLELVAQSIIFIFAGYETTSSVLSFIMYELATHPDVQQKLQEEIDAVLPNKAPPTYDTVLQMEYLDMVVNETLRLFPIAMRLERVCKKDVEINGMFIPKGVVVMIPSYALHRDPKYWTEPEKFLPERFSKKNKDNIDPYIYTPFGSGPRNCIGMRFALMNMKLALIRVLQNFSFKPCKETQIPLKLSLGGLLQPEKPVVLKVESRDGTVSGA

SMILES	target or system	assay	test system	setting	how to read	endpoint	result
C[C@@H](c1nc(-c2ccc(C#N)cc2)cs1)[C@](O)(Cn1cncn1)c1cc(F)ccc1F	OCT1	substrate transport	–	together with: [14C]tetraethylammonium	–	Ki	1.74 µM
Cc1c(O)cccc1C(=O)N[C@@H](CSc1ccccc1)[C@H](O)CN1C[C@H]2CCCC[C@H]2C[C@H]1C(=O)NC(C)(C)C	Multidrug resistance protein 1a (Rattus norvegicus, UniProt Q6PSM0)	–	rat	corrected for vascular drug, together with: zosuquidar	relative to: without zosuquidar	brain uptake ratio	≤ 80 fold
CS(=O)(=O)CCNCc1ccc(-c2ccc3ncnc(Nc4ccc(OCc5cccc(F)c5)c(Cl)c4)c3c2)o1	hiPSC-derived cardiomyocytes	–	–	72 h, tested 0 to 100 µM	–	beating cessation concentration	33 µM
C[C@@H](O)CCCCn1c(=O)c2c(ncn2C)n(C)c1=O	low Km non-CYP enzyme	substrate, refers to: pentoxifylline formation	human liver microsomes	biphasic kinetics	–	Km	0.282 µM
O=C(O)C(Cl)Cl	glutathione S-transferase zeta	own metabolism to glyoxylate, inhibitor	–	concentration not given	–	inhibition	inhibited
CC(=O)C(C)n1ncn(-c2ccc(N3CCN(c4ccc(OC[C@H]5CO[C@](Cn6cncn6)(c6ccc(Cl)cc6Cl)O5)cc4)CC3)cc2)c1=O (stereo partly drawn)	Cytochrome P450 3A4 (CYP3A4, Homo sapiens, UniProt P08684)	competitive inhibitor	–	–	unbound	Ki	0.014 µM
CN(C/C=C/C#CC(C)(C)C)Cc1cccc2ccccc12	CYP2C19	substrate, refers to: dihydrodiol formation	–	–	–	Km	110 ± 63 µM
COc1ccc2[nH]c([S+]([O-])Cc3ncc(C)c(OC)c3C)nc2c1 (stereo not drawn)	CYP2C19 (Homo sapiens, UniProt P33261)	–	human	together with: CYP2C19 poor vs extensive metabolizers	–	fraction metabolized	0.93
C[C@@H](c1nc(-c2ccc(C#N)cc2)cs1)[C@](O)(Cn1cncn1)c1cc(F)ccc1F	CYP2A6	enzyme activity, inhibitor	–	together with: coumarin 7-hydroxylation	–	IC50	> 100 µM
O=C1CC[C@@]2(O)[C@H]3Cc4ccc(O)c5c4[C@@]2(CCN3CC2CC2)[C@H]1O5	UGT2B7 (human)	glucuronidation, substrate	–	–	–	Km	50 to 200 µM
CO[C@@H]1[C@@H]2OP(=O)(O)OC[C@H]2O[C@H]1n1c(Sc2ccc(Cl)cc2)nc2c(N)ncnc21	PDE10	cyclic nucleotide hydrolysis, substrate or inhibitor, isothermal titration calorimetry	–	–	–	Km or Ki	5.84 µM
O=C(Nc1nc2cccc(-c3ccc(CN4CCS(=O)(=O)CC4)cc3)n2n1)C1CC1	OATP1B1	inhibitor	–	–	–	IC50	98 µM
CNC(=O)c1cc(Oc2ccc(NC(=O)Nc3ccc(Cl)c(C(F)(F)F)c3)c(F)c2)ccn1	hiPSC-derived cardiomyocytes	–	–	72 h, tested 0 to 100 µM	–	beating cessation concentration	11 µM
CC(=O)C[C@@H](c1ccccc1)c1c(O)c2ccccc2oc1=O	CYP2C9	substrate	healthy subjects, fed	oral, 10 mg, together with: simeprevir 150 mg	relative to: with over without simeprevir	AUClast ratio	1.04
CN(CC(=O)O)C(=O)CN	PepT1	–	mouse, small intestine	dose not given	relative to: PepT1 knockout over wild type	permeability reduction	10 fold
Nc1nc2c(nc(Sc3ccc(Cl)cc3)n2C2O[C@@H]3COP(=O)(O)O[C@H]3[C@H]2O)c(=O)[nH]1 (stereo in doubt)	PDE1B	cyclic nucleotide hydrolysis, substrate or inhibitor, isothermal titration calorimetry	–	–	–	Km or Ki	8.62 µM
CONC(=N)c1ccc(-c2ccc(-c3ccc(C(=N)NOC)cc3)o2)cc1	CYP4F, recombinant	refers to: M1 formation	–	–	relative to: CYP4F over CYP3A	intrinsic clearance ratio	≥ 30 fold
Cn1c(=O)c2c(ncn2C)n(C)c1=O	Cytochrome P450 1A2 (CYP1A2, Homo sapiens, UniProt P05177)	demethylation to paraxanthine, substrate	–	–	–	fraction eliminated	80 to 90%
CN(C)C(=O)CCSC(SCCC(=O)O)c1cccc(/C=C/c2ccc3ccc(Cl)cc3n2)c1 (stereo not drawn)	MRP2	CDF transport, inhibitor	Sf9 membrane vesicles	–	–	Ki	< 10 µM
C[C@]12CC[C@@H]3c4ccc(O)cc4CC[C@H]3[C@@H]1CC[C@@H]2O[C@@H]1O[C@H](C(=O)O)[C@@H](O)[C@H](O)[C@H]1O	SLCO1B3 (Homo sapiens, UniProt Q9NPD5)	–	–	–	–	Ki	24.6 µM
Fc1ccc([C@@H]2CCNC[C@H]2COc2ccc3c(c2)OCO3)cc1	CYP2D6 human	enzyme activity, inactivator	–	20 to 30 mg once daily, steady-state blood concentrations	–	inhibition	93%

Repeated from above:
SMILES	target or system	assay	test system	setting	how to read	endpoint	result
CNC(=O)c1cc(Oc2ccc(NC(=O)Nc3ccc(Cl)c(C(F)(F)F)c3)c(F)c2)ccn1	hiPSC-derived cardiomyocytes	–	–	72 h, tested 0 to 100 µM	–	beating cessation concentration	11 µM
CC(=O)C[C@@H](c1ccccc1)c1c(O)c2ccccc2oc1=O	CYP2C9	substrate	healthy subjects, fed	oral, 10 mg, together with: simeprevir 150 mg	relative to: with over without simeprevir	AUClast ratio	1.04
CN(CC(=O)O)C(=O)CN	PepT1	–	mouse, small intestine	dose not given	relative to: PepT1 knockout over wild type	permeability reduction	10 fold
